Published values pooled from the literature.
A part holds a random share of what one study measured. Values joined by “and” are separate records of one study, mostly repeats; a detail may differ.

Sample 1
Target: Eukaryotic initiation factor 4A-III (Homo sapiens, UniProt P38919)
Sequence of UniProt P38919 (whole entry, looked up): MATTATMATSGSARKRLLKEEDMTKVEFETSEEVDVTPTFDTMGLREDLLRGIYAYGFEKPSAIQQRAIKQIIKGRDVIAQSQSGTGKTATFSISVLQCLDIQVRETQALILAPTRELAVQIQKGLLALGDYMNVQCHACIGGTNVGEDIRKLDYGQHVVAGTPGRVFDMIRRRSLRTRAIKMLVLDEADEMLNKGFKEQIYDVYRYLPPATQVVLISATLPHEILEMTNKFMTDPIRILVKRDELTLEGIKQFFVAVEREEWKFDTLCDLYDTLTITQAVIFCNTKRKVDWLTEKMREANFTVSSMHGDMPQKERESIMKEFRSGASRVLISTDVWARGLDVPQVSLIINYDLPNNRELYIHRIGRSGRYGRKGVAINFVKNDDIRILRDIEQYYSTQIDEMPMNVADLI
Effect on: RNA clamping
Technique: fluorescence polarization
Concentration: concentration not given
Added: FAM-labelled poly r(AG)8 RNA
`COc1ccc([C@]23Oc4cc(OC)cc(OC)c4[C@](O)(C2O)[C@H](c2c(F)c(F)c(F)c(F)c2F)[C@H]3c2ccccc2)cc1` (some centres unmarked) — result for “fluorescence polarization change”: 2.7 mP.
Under “fluorescence polarization change”, `COc1cc(F)cc2c1[C@]1(O)[C@H](O)[C@H](C#N)[C@@H](c3ccccc3)[C@]1(c1ccc(Br)cc1)O2` is recorded as 25.6 mP.
`O=C1C[C@@H](c2ccccc2)[C@]2(c3ccc(Br)cc3)Oc3cc(F)cc(F)c3[C@]12O` — result for “fluorescence polarization change”: -1 mP.
`COC(=O)C1=C(OS(=O)(=O)c2ccc(C)cc2)[C@@]2(O)c3c(OC)cc(OC)cc3O[C@@]2(c2ccc(OC)cc2)[C@@H]1c1ccccc1`: “fluorescence polarization change” -0.8 mP.
For `COC(=O)[C@@H]1[C@@H](c2ccccc2)[C@]2(c3ccc(OC)cc3)Oc3cc(OC)cc(OC)c3[C@@]23NC(CCl)=N[C@@]13O`, “fluorescence polarization change” read 14.9 mP.
`COC(=O)[C@H]1[C@@H](O)[C@@]2(O)c3c(OC)cccc3N(C)[C@@]2(c2ccc(OC)cc2)[C@@H]1c1ccccc1` — result for “fluorescence polarization change”: -4.4 mP.

Sample 2
Compound: COc1cc(C(=O)N2CCC(N3CCN(C)CC3)CC2)ccc1Nc1ncc2c(n1)N(C)c1ccccc1C(=O)N2C
For WNK1/WNK2 (mouse); probe labelling, inhibitor, KiNativ ActivX ADP probe; mouse brain lysate; 0.1 µM, ATP loop peptide GSFkTVYK: inhibition read 7.8%.
It gave -3.7% for inhibition (human PBMC; probe labeling, inhibitor, KiNativ profiling, refers to: FYAVkVLQK; cell lysate; concentration not given, LYS1 site, added: ATP acyl-phosphate probe 0.1 µM).
PIK3CA; 1 µM — inhibition: 31.5%.
The inhibition was -4.1% (mouse MER and TYRO3; probe labelling, KiNativ ADP probe; mouse brain lysate; 1 µM).
The inhibition was -8.9% (human PBMC; probe labeling, inhibitor, KiNativ profiling, refers to: DLkPQNLLINR; cell lysate; concentration not given, LYS2 site, added: ATP acyl-phosphate probe).
The inhibition was 3.7% (OSR1 (mouse); KiNativ ATP probe; mouse brain tissue; 1 µM, probe site LYS2).
For SGK2 (mouse); probe labelling, inhibitor, KiNativ ActivX ATP probe; mouse brain lysate; 0.1 µM, Lys1 site peptide: inhibition read 0.6%.
NEK9 (mouse); probe labelling, KiNativ ADP probe; mouse brain lysate; 1 µM, LYS1 labelled site — inhibition: 11.5%.

Sample 3
Target: Muscarinic acetylcholine receptor M5 (CHRM5, Homo sapiens, UniProt P08912)
Sequence of UniProt P08912 (whole entry, looked up): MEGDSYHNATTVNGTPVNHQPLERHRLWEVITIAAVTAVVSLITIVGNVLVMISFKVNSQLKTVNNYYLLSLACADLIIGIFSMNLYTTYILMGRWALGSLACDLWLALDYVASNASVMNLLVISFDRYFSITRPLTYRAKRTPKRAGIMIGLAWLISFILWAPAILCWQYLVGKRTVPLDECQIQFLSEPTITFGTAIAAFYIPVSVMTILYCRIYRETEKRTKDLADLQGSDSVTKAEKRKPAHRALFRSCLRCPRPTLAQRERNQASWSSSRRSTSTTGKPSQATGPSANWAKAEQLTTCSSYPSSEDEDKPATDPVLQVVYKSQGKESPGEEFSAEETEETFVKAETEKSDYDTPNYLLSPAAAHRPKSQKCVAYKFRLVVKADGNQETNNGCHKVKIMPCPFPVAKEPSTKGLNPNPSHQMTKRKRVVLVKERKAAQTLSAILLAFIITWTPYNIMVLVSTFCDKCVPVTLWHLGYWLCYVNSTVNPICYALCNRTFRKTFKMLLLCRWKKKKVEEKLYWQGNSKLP
Effect on: binding
Technique: radioligand binding
Concentration: 10 µM
`Cc1cc(C)c(-n2ccn3nc(-c4cccnc4)cc23)cc1NC(=O)c1cc(C#N)cc(S(F)(F)(F)(F)F)c1` gave an inhibition of 16.1%.
For `COc1cc(-c2cn(C3CCc4ccccc4N(CC(F)(F)F)C3=O)nn2)ccc1-n1ccc(C)n1` (centres unmarked), the inhibition was 0.39%.
`Cc1c[nH]c2nccc(Oc3c(F)cc(Nc4cc(Cl)nc(N)n4)cc3F)c12` gave an inhibition of -3.6%.
`C[C@@]1(Cc2ccc(C#N)cc2)C(=O)N(c2cc(Cl)cc(Cl)c2)c2ncc(C(=O)NC3(c4nc(C5CCC5)no4)CC3)n21` has an inhibition of -8.46%.
`O=C(Nc1cnc(Oc2ccc(F)cc2)nc1)N1CCc2ncccc2[C@@H]1c1ccc(F)cc1` has an inhibition of 12%.
The inhibition of `C[C@H](NC(=O)c1cnc2n1[C@](C)(Cc1ccc(C#N)cc1)C(=O)N2c1cc(Cl)c(F)c(Cl)c1)C(=O)NC1(c2ccccn2)CC1` is reported as -11.8%.
`O=C(O)c1cc(-c2ccc(C3CCNCC3)cc2)c2ccc(-c3ccc(C(F)(F)F)cc3)cc2c1` gave an inhibition of 10.1%.
The inhibition of `Cc1nccc(COC(=O)N2C[C@@H]3[C@@H](CNC(=O)c4ccc5[nH]nnc5c4)[C@@H]3C2)n1` is reported as -9.7%.
For `CCCOc1ccc([C@H]2[C@H](C(=O)O)[C@@H](c3ccc4c(c3)OCO4)CN2CC(=O)Nc2c(CC)cccc2CC)cc1`, the inhibition was 27.3%.
With `Cc1nc(Cc2cccc(C(F)(F)F)c2)sc1-c1ccc(C(N)=O)nc1` the inhibition was 11.2%.
With `CC(C)CC(=O)N1CCc2nc(-c3ccc(Br)cc3)nc(N(C)Cc3ccccc3)c2C1` the inhibition was 7.59%.
For `Cc1nc(C2CCN(C(=O)c3ccc(OC(F)(F)F)cc3N)CC2)c2ncc(N3CCN(C)CC3)cc2n1`, the inhibition was -3.81%.
`CN1CCN(C(=O)C(C)(C)c2ccc(C(=O)Nc3cn4cc(-c5ccncc5)ccc4n3)cc2)CC1` gave an inhibition of 9.31%.
`CC(=O)Nc1nc(CN2CCC[C@H](Cc3cc(C)nc(C)c3)C2)cs1` has an inhibition of -6.15%.
For `O=C(Nc1cccnn1)N1CC(CC=Cc2cncc(Oc3ccc(C(F)(F)F)cn3)n2)C1`, the inhibition was -0.59%.
The inhibition of `CNC(=O)c1ccc(Nc2ncc(C(F)(F)F)c(NCc3nccnc3N(C)S(C)(=O)=O)n2)cc1` is reported as 5.41%.
With `O=C1CCc2cc(Nc3cc(OC4CCOCC4)c([N+](=O)[O-])cc3Cl)ccc2N1` the inhibition was 12.6%.
With `CN1C(=O)[C@@H](N2CCc3cn(Cc4ccccc4)nc3C2=O)COc2ccccc21` the inhibition was 6.63%.
`O[C@]1(C(F)(F)F)CCCC[C@H]1Nc1ccc(F)cc1` has an inhibition of 10.4%.

Sample 4
Cell line: mouse MPNST tumor cells
Technique: high-content nuclear imaging
Refers to: cell number
Concentration: 10 µM
Time: 12 h
Notes: mean of 2 replicates
Reference: plate mean
Reading: higher = more cells
`O=C(O)CCC=CCC1COC(c2ccccc2Cl)OC1c1ccccc1O` (centres unmarked) has a nuclei count of -0.309 z-score.
The nuclei count of `O=C(O)c1ccccc1Nc1ccc(CCc2ccc(Cl)c(Cl)c2)cc1` is reported as 1.95 z-score.
`CN(c1ccccc1CNc1nc(Nc2ccc3c(c2)CC(=O)N3)ncc1C(F)(F)F)S(C)(=O)=O` has a nuclei count of -3.83 z-score.
The nuclei count of `CC1=C(C(=O)Nc2cc(Cl)ccc2Cl)C(c2ccco2)C2=C(CCCC2=O)N1` (centres unmarked) is reported as 1.22 z-score.
With `CN(C)CCC[C@@]1(c2ccc(F)cc2)OCc2cc(C#N)ccc21` the nuclei count was 3.43 z-score and 3.23 z-score.
With `O=C(Nc1ccc([N+](=O)[O-])cc1Cl)c1cc(Cl)ccc1O` the nuclei count was 3.56 z-score and 1.4 z-score.
For `COc1ccc(CC(=O)NC(/N=C(\NC#N)Nc2cccc3ncccc23)C(C)(C)C)cc1OC` (centres unmarked), the nuclei count was 0.425 z-score.
`O=C1CCC(N2C(=O)c3ccccc3C2=O)C(=O)N1` (centres unmarked) gave a nuclei count of 1.47 z-score and -0.71 z-score.

For quick reference, copied from above (sample 1):
Under “fluorescence polarization change”, `COc1cc(F)cc2c1[C@]1(O)[C@H](O)[C@H](C#N)[C@@H](c3ccccc3)[C@]1(c1ccc(Br)cc1)O2` is recorded as 25.6 mP.
`O=C1C[C@@H](c2ccccc2)[C@]2(c3ccc(Br)cc3)Oc3cc(F)cc(F)c3[C@]12O` — result for “fluorescence polarization change”: -1 mP.
`COC(=O)C1=C(OS(=O)(=O)c2ccc(C)cc2)[C@@]2(O)c3c(OC)cc(OC)cc3O[C@@]2(c2ccc(OC)cc2)[C@@H]1c1ccccc1`: “fluorescence polarization change” -0.8 mP.
For `COC(=O)[C@@H]1[C@@H](c2ccccc2)[C@]2(c3ccc(OC)cc3)Oc3cc(OC)cc(OC)c3[C@@]23NC(CCl)=N[C@@]13O`, “fluorescence polarization change” read 14.9 mP.
`COC(=O)[C@H]1[C@@H](O)[C@@]2(O)c3c(OC)cccc3N(C)[C@@]2(c2ccc(OC)cc2)[C@@H]1c1ccccc1` — result for “fluorescence polarization change”: -4.4 mP.
